Assay results of several laboratories.
Protocols differ between the studies behind these lines. ± marks the error that the study gave.
APP Aβ42 aggregates: Amyloid-beta precursor protein, Aβ42 aggregates (APP, Homo sapiens, UniProt P05067)
UniProt P05067, sequence (whole entry, looked up): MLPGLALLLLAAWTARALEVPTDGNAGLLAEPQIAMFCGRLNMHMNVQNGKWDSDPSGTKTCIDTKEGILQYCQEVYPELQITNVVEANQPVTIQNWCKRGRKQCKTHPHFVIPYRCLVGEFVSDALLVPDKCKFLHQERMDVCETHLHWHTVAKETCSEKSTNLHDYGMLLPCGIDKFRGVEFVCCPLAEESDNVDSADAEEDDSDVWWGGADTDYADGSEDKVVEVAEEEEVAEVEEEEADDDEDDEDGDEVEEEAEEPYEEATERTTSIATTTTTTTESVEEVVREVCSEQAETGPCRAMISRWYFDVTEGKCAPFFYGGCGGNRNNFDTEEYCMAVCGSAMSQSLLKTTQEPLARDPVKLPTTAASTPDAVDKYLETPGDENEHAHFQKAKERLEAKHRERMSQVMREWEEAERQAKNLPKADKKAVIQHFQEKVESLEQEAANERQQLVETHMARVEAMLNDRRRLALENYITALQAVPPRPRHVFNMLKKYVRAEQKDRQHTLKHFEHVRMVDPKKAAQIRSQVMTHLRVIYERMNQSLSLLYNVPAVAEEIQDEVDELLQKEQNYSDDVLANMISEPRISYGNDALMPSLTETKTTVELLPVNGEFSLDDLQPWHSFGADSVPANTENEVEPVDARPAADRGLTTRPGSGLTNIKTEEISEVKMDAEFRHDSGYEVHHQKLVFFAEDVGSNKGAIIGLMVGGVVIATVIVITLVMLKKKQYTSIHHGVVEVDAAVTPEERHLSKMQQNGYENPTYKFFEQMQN
APP: Amyloid-beta precursor protein (APP, Homo sapiens, UniProt P05067)
APP monomer: Amyloid-beta precursor protein, monomer (APP, Homo sapiens, UniProt P05067)

`COCCOCCOCCOC(=O)C(C#N)=Cc1ccc(N(C)C)cc1` gave a fluorescence intensity of 1.8 fold (APP Aβ42 aggregates; binding, fluorescence spectroscopy; PBS; 4 µM, added: pre-aggregated Aβ(1-42) 5 µM; relative to: probe without Aβ).
`[11CH3]Nc1ccc(-c2nc3ccc(O)cc3o2)cn1` — result for “distribution volume ratio”: 1.64 ± 0.19 (APP; binding, PET, reference Logan; Alzheimer's disease patients, prefrontal cortex; relative to: cerebellum).
With `CC[C@H](C)[C@H](NC(=O)[C@@H](NC(=O)[C@@H](N)C(C)C)C(C)C)C(=O)N[C@@H](C)C(=O)O` the inhibition was 33.9% (APP; amyloid aggregation, inhibitor, fluorescence; 2 µM, 24 h).
With `COCCOCCOCCOCCOC(=O)/C(C#N)=C/c1ccc2cc(N3CCCCC3)ccc2c1` the excitation maximum was 410 nm (APP Aβ42 aggregates; fluorescence; added: aggregated Abeta42 5 µM).
The inhibition of `CC(C)C[C@@H]1NC(=O)CN(C)C(=O)CCCCC(=O)NCCCC[C@@H](C(=O)N[C@@H](CCCNC(=N)N)C(N)=O)NC(=O)[C@H](Cc2ccccc2)NC(=O)[C@H](Cc2ccccc2)NC(=O)c2ccccc2NC1=O` is reported as 69% (APP monomer; amyloid aggregation, inhibitor, fluorescence; 40 µM, pH 7.4).
For `COCCOCCOCCOC(=O)/C(C#N)=C/c1ccc2cc(NCCN3CCOCC3)ccc2c1`, the excitation maximum was 430 nm (APP Aβ42 aggregates; fluorescence; added: aggregated Abeta42 5 µM).
For `CC(C)C[C@@H]1NC(=O)CN(C)C(=O)CCCC(=O)NCCCC[C@@H](C(=O)N[C@@H](CCCNC(=N)N)C(N)=O)NC(=O)[C@H](Cc2ccccc2)NC(=O)[C@H](Cc2ccccc2)NC(=O)[C@H](C(C)C)NC1=O`, the inhibition was 78.5% (APP monomer; amyloid aggregation, inhibitor, fluorescence; 40 µM, pH 7.4).
`COCCOCCOCCOC(=O)C(C#N)=Cc1ccc(C=Cc2ccc(N(C)C)cc2)cc1` has an emission maximum of 638 nm (APP Aβ42 aggregates; binding, fluorescence spectroscopy; PBS; 4 µM, added: pre-aggregated Aβ(1-42) 5 µM).
The band density of `COc1cc(C=CC(=O)CC(=O)C=Cc2ccc(OCC(=O)NCCOCCOCCOCCOCCOCCOCCOCC(F)(F)F)c(OC)c2)ccc1O` is reported as 398 ± 37% (APP; Aβ aggregation, SDS-PAGE western blot, measured: Aβ1-42 75-200 kDa band; 30 µM, 24 h, 37 °C, added: Aβ1-42 10 µM; relative to: DMSO).
With `CC[C@H](C)[C@H](NC(=O)[C@@H]1CCCN1C(=O)[C@@H](N)C(C)C)C(=O)N[C@@H](C)C(N)=O` the inhibition was 31.8% (APP; amyloid aggregation, inhibitor, fluorescence; 2 µM, 24 h).
`CCN(CC)c1ccc(C=C(C#N)C(=O)OCCOCCOCCOC)cc1` gave a maximum inhibition of 98% (Amyloid-beta precursor protein, amyloid-beta aggregates (APP, Homo sapiens, UniProt P05067); IgG-amyloid beta binding, inhibitor, ELISA; added: aggregated amyloid beta).
The soluble fraction of `CC[C@H](C)[C@@H]1NC(=O)[C@H]([C@@H](C)O)NC(=O)[C@H](Cc2ccc(O)cc2)NC(=O)[C@H](CCCNC(=N)N)NC(=O)[C@@H]2CCCN2C(=O)[C@H]2CCCN2C(=O)[C@H]([C@@H](C)O)NC(=O)[C@H](C(C)C)NC(=O)[C@H](C(C)C)NC(=O)[C@H](CCCCN)NC(=O)[C@H](CO)NC(=O)[C@@H](CCC(N)=O)NC(=O)[C@H](CO)NC(=O)[C@H](Cc2ccc(O)cc2)NC(=O)[C@H](CO)NC(=O)[C@H](Cc2ccc(O)cc2)NC(=O)[C@@H]2CCCN2C(=O)[C@H](CO)NC(=O)[C@H](CC(C)C)NC(=O)[C@H](CC(C)C)NC(=O)[C@H](C)NC(=O)[C@H](C)NC1=O` is reported as 91% (Amyloid-beta precursor protein, Aβ40 (APP, Homo sapiens, UniProt P05067); amyloid-beta aggregation, centrifugation; 24 h, 37 °C, 30 min at 19500 g, added: amyloid-beta).

Some of these lines once more:
`CCN(CC)c1ccc(C=C(C#N)C(=O)OCCOCCOCCOC)cc1` gave a maximum inhibition of 98% (Amyloid-beta precursor protein, amyloid-beta aggregates (APP, Homo sapiens, UniProt P05067); IgG-amyloid beta binding, inhibitor, ELISA; added: aggregated amyloid beta).
